Results gathered from unrelated publications.
A part holds a random share of what one study measured. Changes are numbered by the printed parent chain.

Study 1
Target: Sal-like protein 4, full length isoform A (SALL4, Homo sapiens, UniProt Q9UJQ4, residues 1-1053)
Chain of UniProt Q9UJQ4 (whole entry, looked up): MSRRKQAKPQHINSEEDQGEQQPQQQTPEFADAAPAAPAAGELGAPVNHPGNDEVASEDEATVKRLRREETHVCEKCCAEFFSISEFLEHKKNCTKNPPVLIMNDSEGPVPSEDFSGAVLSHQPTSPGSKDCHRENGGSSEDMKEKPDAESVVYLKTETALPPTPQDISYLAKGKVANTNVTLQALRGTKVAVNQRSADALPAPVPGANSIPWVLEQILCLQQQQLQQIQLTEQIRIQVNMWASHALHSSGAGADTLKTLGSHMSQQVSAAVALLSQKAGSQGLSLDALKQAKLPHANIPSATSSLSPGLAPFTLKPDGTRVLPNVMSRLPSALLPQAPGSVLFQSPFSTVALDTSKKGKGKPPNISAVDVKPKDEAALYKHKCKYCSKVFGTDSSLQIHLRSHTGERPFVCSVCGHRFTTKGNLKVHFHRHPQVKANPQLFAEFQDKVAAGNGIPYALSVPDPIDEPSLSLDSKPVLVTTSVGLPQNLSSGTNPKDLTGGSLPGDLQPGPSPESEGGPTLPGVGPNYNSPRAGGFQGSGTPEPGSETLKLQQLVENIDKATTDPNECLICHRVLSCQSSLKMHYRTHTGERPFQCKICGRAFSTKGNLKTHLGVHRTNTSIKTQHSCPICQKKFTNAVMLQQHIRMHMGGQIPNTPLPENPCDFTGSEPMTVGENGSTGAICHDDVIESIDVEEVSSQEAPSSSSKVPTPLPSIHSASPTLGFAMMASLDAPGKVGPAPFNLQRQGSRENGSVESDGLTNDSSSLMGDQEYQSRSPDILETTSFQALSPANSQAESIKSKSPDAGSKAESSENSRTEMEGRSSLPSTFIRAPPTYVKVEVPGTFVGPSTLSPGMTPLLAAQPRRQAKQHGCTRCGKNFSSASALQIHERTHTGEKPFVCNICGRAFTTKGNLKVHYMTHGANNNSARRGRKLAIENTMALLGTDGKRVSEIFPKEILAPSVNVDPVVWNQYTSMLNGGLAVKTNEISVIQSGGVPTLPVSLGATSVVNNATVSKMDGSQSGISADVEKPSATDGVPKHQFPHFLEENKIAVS
Technique: universal PBM
Molecule type: double-stranded DNA, one strand shown
Medium: in vitro
Concentration: 600 nM
Setting: 8-mer, flanks averaged, mean of replicates
Reading: higher = stronger binding
| Sequence | E-score |
| --- | --- |
| CAGCACAA | -0.0144 |
| TAAACAGA | 0.247 |
| ACCTGCTA | 0.0143 |
| ATCAGTTA | 0.244 |
| GCCCGAGA | -0.209 |
| GTTTAGGA | -0.0854 |
| CAACTCTC | -0.119 |
| AGTACCCC | -0.275 |
| GCCTCCAA | -0.091 |
| AGTAAAAT | 0.252 |
| CCTTCTTC | -0.0708 |
| CCTATCAG | -0.105 |
| AATATCGG | 0.2 |
| ATTATCCA | 0.206 |
| CAAGCGAG | 0.02 |
| CACTATAA | 0.242 |
| TGCAGAAA | 0.202 |
| AAGTCTTG | -0.0427 |
| CTAGAATA | 0.299 |
| AGGGGGAT | -0.168 |
| ATGCAAAT | 0.209 |
| ATGCGCCC | -0.22 |
| ATTACTGA | 0.275 |
| ACACATCG | 0.068 |
| AGGATTCC | -0.166 |

Study 2
Target: Interferon regulatory factor 5, full length, phosphomimetic (IRF5, Homo sapiens, UniProt Q13568-2, residues 1-514, S451D/S453D/S456D/S462D)
Technique: protein-binding microarray
Molecule type: double-stranded DNA, one strand shown
Medium: in vitro
Concentration: 940 nM top
Setting: 60-bp whole probe
Together with: salmon DNA 0.4 mg/ml
Reference: random background probes
Reading: higher = stronger binding
Shared flanks, not repeated: GCCTAGCAC … GTCTTGATTCGCTTGACGCTGCTG
| Sequence | fitted relative affinity [z-score] |
| --- | --- |
| GAGGGTTTCGACTATCGGGACGTGCTA | 6.48 |
| GACGGACTGGACACTTGGGACGTGCTA | -0.45 |
| CCTGGCTTCATGTTGCTCTCCGTGCTA | -0.356 |
| TTAGGACTGGACAATGGGTTAGTGCTA | -0.486 |
| TCATTTTTCTGAACCATACTGTGCTAG | 0.638 |
| ATGTTCACTGTGTACCGTCTGTGCTAG | -0.157 |
| TCAAGTCTCAACCCCCAAACTGTGCTA | 1.05 |
| CACTATTTAAGGCCTATGCACGTGCTA | -0.0739 |
| AGGTGGGAGGGGACAGTGGTGTGCTAG | 1.24 |
| TTTGCTTTCATTTATTTACTGTGCTAG | 2.85 |
| TTTGAACTGAGACTGGATTAGTGCTAG | 0.0111 |
| TCAATGATTTTTTTCATACTGTGCTAG | 0.497 |
| TTACGACTGGACACTGGGTTAGTGCTA | -0.0809 |
| TTAGGTTTCGGGACTGGTTTAGTGCTA | 8.15 |

Study 3
Target: UBE2E2 UBC core domain (UniProt Q96LR5)
Chain of UniProt Q96LR5 (whole entry, looked up): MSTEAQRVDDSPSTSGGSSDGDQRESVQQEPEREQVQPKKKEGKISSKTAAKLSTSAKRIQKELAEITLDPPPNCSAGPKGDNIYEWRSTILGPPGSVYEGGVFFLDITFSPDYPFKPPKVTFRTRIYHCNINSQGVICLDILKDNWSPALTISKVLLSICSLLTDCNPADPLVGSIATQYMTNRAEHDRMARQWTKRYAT
Technique: yeast two-hybrid
Medium: yeast
Setting: mostly zero background
Reference: not given
Reading: higher = stronger interaction
B1: NHLRC1 RING domain (UniProt Q6VVB1); chain MREAEISLLECKVCFEKFGHRQQRRPRNLSCGHVVCLACVAALAHPRTLALECPFCRRACRGCDTSD
B2: TRIM32 RING domain (UniProt Q13049); chain NLDALREVLECPICMESFTEEQLRPKLLHCGHTICRQCLEKLLASSINGVRCPFCSKITRITSLTQ
B3: MARCHF2 RING domain (UniProt Q9P0N8); chain RLLSTVIRALDTPSDGPFCRICHEGANGECLLSPCGCTGTLGAVHKSCLEKWLSSSNTSYCELCHTEFAVEKRPRPLTEWL
B4: ARIH1 RING domain (UniProt Q9Y4X5); chain NTRSSAQDMPCQICYLNYPNSYFTGLECGHKFCMQCWSEYLTTKIMEEGMGQTISCPAHGCDILVDDNTVM
B5: TRIM47 RING domain (UniProt Q96LD4); chain MDGSGPFSCPICLEPLREPVTLPCGHNFCLACLGALWPHRGASGAGGPGGAARCPLCQEPFPDGLQLR
B6: TRIM2 RING domain (UniProt Q9C040); chain VRQIDKQFLICSICLERYKNPKVLPCLHTFCERCLQNYIPAHSLTLSCPVCRQTSILPEKGV
B7: RNF7 RING domain (UniProt Q9UBF6); chain AICRVQVMDACLRCQAENKQEDCVVVWGECNHSFHNCCMSLWVKQNNRCPLCQQDWVVQRIGK
B8: TRIM68 RING domain (UniProt Q6AZZ1); chain LVEAIVEEVACPICMTFLREPMSIDCGHSFCHSCLSGLWEIPGESQNWGYTCPLCRAPVQPRNLRP
| Molecule | lacZ reporter activity |
| --- | --- |
| B1 (NHLRC1 RING domain) | 0 |
| B2 (TRIM32 RING domain) | 0 |
| B3 (MARCHF2 RING domain) | 0 |
| EIKDYKARLTCPCCNMRKKDAVLTKCFHVFCFECVKTRYDTRQRKCPKCNAAFGANDFHR (RNF20 RING domain (UniProt Q5VTR2)) | 0 |
| B4 (ARIH1 RING domain) | 0 |
| B5 (TRIM47 RING domain) | 0 |
| KITELNPHLMCALCGGYFIDATTIVECLHSFCKTCIVRYLETNKYCPMCDVQVHKTRPLL (PCGF2 RING domain (UniProt P35227)) | 7440 |
| B6 (TRIM2 RING domain) | 0 |
| B7 (RNF7 RING domain) | 0 |
| B8 (TRIM68 RING domain) | 0 |
| EDVLSKDAGECAICLEELQQGDTIARLPCLCIYHKGCIDEWFEVNRSCPEHPSD (ZNRF2 RING domain (UniProt Q8NHG8)) | 0 |

Study 4
Target: CCND2, cyclin fold, Cln2 fusion (human)
Technique: yeast growth competition, sequencing
Medium: yeast
Setting: weak parent motif
Reference: not given
Reading: higher = stronger binding
Starting sequence: ITGB3BP docking peptide (human); MPVKRSLKLDGLL
| Change | normalised enrichment score |
| --- | --- |
| L7A | 0.505 |
| K4A | 0.258 |
| K8A | 0.272 |
| M1A | -0.245 |
| S6A | 0.308 |
| L9F | -0.192 |
| R5K | -0.256 |
| R5A L7A | 0.0275 |
| R5A | -0.167 |
| D10A | -0.158 |
